Results pooled from the literature.
Each numbered part is a random draw from the data of one study; scales do not carry over between parts.

Series 1
Target: Fragile X messenger ribonucleoprotein 1, C-terminal low-complexity region (Fmr1, Mus musculus, UniProt P35922)
Technique: RNA Bind-n-Seq
Molecule type: RNA
Sample: in vitro
Concentration: 200 nM
Notes: whole 134-nt RNA, ends assumed
Added: 150 mM KCl
Baseline: input library
Direction: higher = stronger binding
Strand	log2 enrichment
GGGAGUUCUACAGUCCGACGAUCGUCCUGUGCUACACAUCGUAUGUACCGAAUCGGGAAAAAAAGGGAAAGGGUUUUUGGGAAAGUAUUAUGUUACGCCGUUCGGAUCUGCACUGGAAUUCUCGGGUGUCAAGG	-0.27
GGGAGUUCUACAGUCCGACGAUCCUGUGCUACACAUCGUAUGUACCGAAUCGGGGUUUUUUUGGGGUUUUUUUGGUUUUUUUGGGAAAGUAUUAUGUUACGCCGUUCGGAUCUUGGAAUUCUCGGGUGUCAAGG	-0.208
GGGAGUUCUACAGUCCGACGAUCGUCCUGUGCUACACAUCGUAUGUACCGAAUCGGUUUUUUUGGUUUUUUUGGAAAAAGGAAAGUAUUAUGUUACGCCGUUCGGAUCUGCACUGGAAUUCUCGGGUGUCAAGG	-0.86
GGGAGUUCUACAGUCCGACGAUCUCCUGUGCUACACAUCGUAUGUACCGAAUCGGAAAAAAGGGAAAAAAGGAAAAAAGGGGAAAGUAUUAUGUUACGCCGUUCGGAUCUGCAUGGAAUUCUCGGGUGUCAAGG	-0.667

Series 2
Target: RING finger protein unkempt homolog, zinc fingers 1-6, SBP tag (UNK, Homo sapiens, UniProt Q9C0B0, residues 30-357)
Chain of UniProt Q9C0B0 (30-357, looked up): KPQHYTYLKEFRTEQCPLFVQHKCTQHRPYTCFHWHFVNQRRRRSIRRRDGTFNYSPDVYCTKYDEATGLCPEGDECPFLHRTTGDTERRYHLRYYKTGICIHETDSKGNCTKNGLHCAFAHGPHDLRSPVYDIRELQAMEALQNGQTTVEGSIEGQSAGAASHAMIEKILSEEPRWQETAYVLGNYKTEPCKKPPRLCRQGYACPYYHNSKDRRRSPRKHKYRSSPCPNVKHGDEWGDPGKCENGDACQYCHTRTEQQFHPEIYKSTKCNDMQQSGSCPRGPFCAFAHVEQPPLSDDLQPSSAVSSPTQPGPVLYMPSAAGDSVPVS
Technique: RNA Bind-n-Seq
Molecule type: RNA
Sample: in vitro
Concentration: 100 nM
Notes: RNA with constant flanks, vertebrate orthologous sites, ends assumed
Baseline: input RNA pool
Direction: higher = stronger binding
Strand	bound/input enrichment [ratio]
GGGAGUUCUACAGUCCGACGAUCCUUACCUGGUUAAUGUGUUUCUAUUUAUUGAGUAUAGUUUGUGCUAAACAUUGUGUUAAAUAGUGGAUUGACUCCACGUUGUUGUGUUGUUUUCAUUGUUGAAAAUAAAUAUAACUUUGUCAACAGAGGAUUGAGCAUCA	0.315
GGGAGUUCUACAGUCCGACGAUCAUUCAAACCUGUGGUACCGUGGCCUCAUGUCGAAGGAGUAGAAGUGGACCUAGAGUCUAUUAGAAGAAAAAACAAGGCCAAAAAUGAACAAGAGCACCACGCUGGAGGAGAUUCCCAGAACAACAGAGGAUUGAGCAUCA	0.305
GGGAGUUCUACAGUCCGACGAUCAACUGUAUUUGUGUCAUACCAGCAUAUUAACCUCUGUGCACAGCUUCCAAUGUUACCGUCUAGUUAGAUUUUUAUUUAAAAUAUGAAAAACUGCUUUUCCCAAGACGUUUUUUAAAAAAACAACAGAGGAUUGAGCAUCA	1.32
GGGAGUUCUACAGUCCGACGAUCCCCUCUGAACCCCAUAUCUUCUGUUUCAUAGUGCAGAAGUAUUCUUUUCAAUUGCAUUAUUGGUGGACUUGUUUUAAUUUUGGAGAAACUUUCAGUACAGAUACUGUGAGCUUACAUGGACAACAGAGGAUUGAGCAUCA	0.912

Series 3
Target: Histone acetyltransferase KAT6A, both winged helices, GST fusion (KAT6A, Homo sapiens, UniProt Q92794, residues 1-181)
Technique: protein binding microarray
Molecule type: double-stranded DNA, one strand shown
Sample: in vitro
Concentration: not given
Notes: 8-mer, flanks averaged, mean of 2 arrays, mostly near background
Baseline: not given
Direction: higher = stronger binding
Target sequence (chain): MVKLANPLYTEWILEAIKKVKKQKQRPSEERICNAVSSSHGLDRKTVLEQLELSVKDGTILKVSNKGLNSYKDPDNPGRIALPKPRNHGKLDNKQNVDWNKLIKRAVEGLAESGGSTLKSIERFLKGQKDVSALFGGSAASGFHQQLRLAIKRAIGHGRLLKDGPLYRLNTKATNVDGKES
Strand	E-score
TGAGGGCA	-0.157
CAAAGAGG	-0.0992
ATGTCTTG	-0.0103
AACCAACG	-0.00535

Mixed results
Substance	target	assay	test system	conditions	scale	endpoint	value
PhoQ, residues 284 288 289 292 302 303 SSCCRF	PhoP, residues 12 14 15 18 19 SPWRL (Escherichia coli, UniProt P23836)	Sort-seq, item: YFP reporter	E. coli	PhoQ-PhoP variant library, added: 10 µM Mg2+	baseline: high Mg2+ state, higher = stronger signaling	fold induction	6.79

Excerpt of the above (series 2):
Strand	bound/input enrichment [ratio]
GGGAGUUCUACAGUCCGACGAUCCCCUCUGAACCCCAUAUCUUCUGUUUCAUAGUGCAGAAGUAUUCUUUUCAAUUGCAUUAUUGGUGGACUUGUUUUAAUUUUGGAGAAACUUUCAGUACAGAUACUGUGAGCUUACAUGGACAACAGAGGAUUGAGCAUCA	0.912
